Measurements collected from several papers.
Each numbered part is a random draw from the data of one study; scales do not carry over between parts. Changes are numbered by the printed parent chain.

Set 1
Target: RNA binding protein fox-1 homolog 2, RRM domain, GST-SBP tag (RBFOX2, Homo sapiens, UniProt O43251-10, residues 100-194)
Technique: RNA Bind-n-Seq
Form: RNA
Medium: in vitro
Concentration: 365 nM
Notes: natural RNA segment, single round, ends assumed
Reference: no-protein control
Direction: higher = stronger binding
Target sequence (chain): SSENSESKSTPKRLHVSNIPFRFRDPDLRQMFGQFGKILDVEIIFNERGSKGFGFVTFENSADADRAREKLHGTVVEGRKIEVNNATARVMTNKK
Sequence	RBNS enrichment (R)
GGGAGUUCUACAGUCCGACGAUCUUUAAACUGCACCUUGCAGAAAUGCAUUGCCAGAAAGCACCAGUAGCCUCCUAUCUGCAAGCAGAGUAGUGCUCUGCUCUGGGGAGGGGUCAUUGGAAACCAUAAUGCAGUGGAAUUCUCGGGUGCCAA	0.302
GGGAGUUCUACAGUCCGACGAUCAGAUGUGACAGCUGGGCUCUGAAGCUAUUUCUGUGUGUGGAGGGAGACAGGAAAGGGUGCUGUGCUAGUAGUGAGAGUGACACAGAUUGCCUCAUGAUUGUCUGGAGUGUUGGAAUUCUCGGGUGCCAA	2.05
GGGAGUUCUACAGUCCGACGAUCUACAUAAAAGAAUUUUUUUGUCUUUAAAUAGAUACAAAUGUCUAUCAACUUUAAUCAAGUUGUAACUUAUAUUGAAGACAAUUUGAUACAUAAUAAAAAAUUAUGACAAUUGGAAUUCUCGGGUGCCAA	0.497
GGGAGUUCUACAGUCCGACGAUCAGACCAAAAUGUUCCUUUUAGUCCUCAAUGUUUUAUAUUCUUUUUGUUUUGAAAAUCUCAAUUUUAAUCAGGGGUUUUAAAAGAAAAUUGAAAGCCUGAACCUCCAUUUUUGGAAUUCUCGGGUGCCAA	0.448
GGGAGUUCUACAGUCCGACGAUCAAGUGUAUUUGCUAUUGUUUUCAAAGUGCUGACAAAGUUUAUAUUUGUAAUGCCAGCAUUCCUCUUCCCCAUUUCCAGCUGUCACUCCUUCAUUAAACUGCUGAGUCAUUUGGAAUUCUCGGGUGCCAA	0.836
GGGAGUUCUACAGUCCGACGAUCUUUUGUCUUUAAUAGAGGAGGCAGAGGGAUCUGUGACUUAAAAGCCAGUCUGAUCUACAUUGUGAGUUCCAAGACAGCCAAAACUACAUAAUGAGACCCUGUCUCAAAAAUGGAAUUCUCGGGUGCCAA	0.276
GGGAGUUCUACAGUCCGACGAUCGGGGCCGCCGCCUCUUUCAAGCAGUCGUGCCUGUGUCCAUGCGCUCAGGGCCAUGCUGAGGCCUGGGCCGCUGCCACGUUGGAGAAGCCCGUGUGAGAAGUGAAUGCUGGUGGAAUUCUCGGGUGCCAA	4.68
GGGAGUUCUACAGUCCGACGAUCACACUUUAAUGAAGGAAACAACACAUUUAUACGGAUUUCAUAUUUCUACCCGCCUUUCCUGACUCUGUGUUUUAUAUAUAUUAUAUAUAAAUAUAUAUUGUGUACGGCCGUGGAAUUCUCGGGUGCCAA	1.06
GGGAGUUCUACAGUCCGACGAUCACACAGAACAGUGAAGGCUACAGGUCAUCAUCAAAGUCCUCUCCGGUUGUAAAGAGGUUGUGCAGUUGCAAGGGUGGAGCCUUCUGGGUCCCUUGAGCCAAAGGCCUACCUGGAAUUCUCGGGUGCCAA	0.377
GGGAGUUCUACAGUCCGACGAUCGAUAGGAUUUAGUUGUGUUUAGGACAUUGCAGAUCUUCUAGAAGUUUCCCCUCAAUCAGGUUGAUAAGACCUUCUAAGCUUCUGCCAAGCAUCUUCAGUGCUCACAAUCAUGGAAUUCUCGGGUGCCAA	0.623
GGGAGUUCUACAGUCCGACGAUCUAACCGUGGGCCGGGACCUUAAGGCCUCUGUGUGGCAGAAGGAUCAGCUGGUGACACAGCUGCACUGGCAAGAAAAUGGACCCACCUUUUCCAGCACACCUUACCGCUACUGGAAUUCUCGGGUGCCAA	0.208
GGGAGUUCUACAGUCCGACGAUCUAAGUAAAACAGCAGUGUACAUAUGUGUGUACAGGACACCAAGACUCGCAGGCAGGCCUGAGAGCCCCAGCCACUCUUCCGGCCCUCGGCGGACCUGCAGAUGACCUGGAUGGAAUUCUCGGGUGCCAA	0.406

Set 2
Target: ABI1, truncated, D143A, DHFR fusion (Arabidopsis thaliana, UniProt P49597)
Technique: DHFR PCA, dose-response
Medium: yeast
Notes: Hill fit, mean, not affinity
Together with: (+)-ABA, dose series
Direction: lower = more sensitive
Parent: PYL1, truncated, DHFR fusion (Arabidopsis thaliana, UniProt Q8VZS8); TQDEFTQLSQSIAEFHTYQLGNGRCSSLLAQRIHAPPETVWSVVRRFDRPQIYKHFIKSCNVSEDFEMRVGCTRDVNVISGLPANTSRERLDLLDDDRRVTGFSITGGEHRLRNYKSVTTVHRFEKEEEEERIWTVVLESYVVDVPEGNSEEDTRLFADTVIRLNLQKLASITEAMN
Variant	ABA EC50 [µM]
N77P	995
P37W	69.1
V62R	93.4
T106R	29.9
T154C	2.98
S63E	2.19
S26T	2.25
N114L	646
L93S	19.2
S9M	8.49
V136S	335
V145E	265
N22T	2.34
R24K	2.27
L29A	66.1
T173Y	118
S42R	3.59
S11L	5.11
E152W	4.83
R90K	3.65
S59Y	19.9
S150K	34.5
F56H	194
D96P	94.5
D97P	32.7

Set 3
Target: Interferon regulatory factor 3, full length, phosphomimetic (IRF3, Homo sapiens, UniProt Q14653, residues 1-427, S386D/S396D/S398D/S402D/T404D/S405D)
Technique: protein-binding microarray
Form: double-stranded DNA, one strand shown
Medium: in vitro
Concentration: 2540 nM top
Notes: 60-bp whole probe
Together with: salmon DNA 0.4 mg/ml
Reference: random background probes
Direction: higher = stronger binding
Shared flanks, not repeated: GCCTAGCAC … GTCTTGATTCGCTTGACGCTGCTG
Construct (chain): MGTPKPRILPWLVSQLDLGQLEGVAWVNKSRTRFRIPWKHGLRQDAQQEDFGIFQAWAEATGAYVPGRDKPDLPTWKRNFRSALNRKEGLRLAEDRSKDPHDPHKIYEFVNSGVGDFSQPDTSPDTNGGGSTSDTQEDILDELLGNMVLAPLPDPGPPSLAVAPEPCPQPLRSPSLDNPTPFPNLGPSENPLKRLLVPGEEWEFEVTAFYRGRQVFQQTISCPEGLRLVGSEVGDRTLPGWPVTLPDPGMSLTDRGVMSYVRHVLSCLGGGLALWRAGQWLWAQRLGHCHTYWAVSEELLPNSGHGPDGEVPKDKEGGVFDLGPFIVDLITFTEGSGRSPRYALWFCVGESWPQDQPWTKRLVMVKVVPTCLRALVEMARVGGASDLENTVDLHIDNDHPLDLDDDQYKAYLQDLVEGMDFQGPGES
Sequence	fitted relative affinity [z-score]
TTAGATTTCAGACTGGATTTGTGCTAG	0.635
GACGGGATCGACTTTCGGGACGTGCTA	0.355
GACGGTATCGCTTTCGGGACGTGCTAG	4.72
AAGTTTATACCTTAGGTTTTGTGCTAG	0.196
GACGGAATGGACTTTCGGGACGTGCTA	0.388
TTAGTTTTCAATTTTTGCATGTGCTAG	2.63
TTAGGTTTAGGTTCCGGTTAGTGCTAG	2.23
GACGATTCCAGTTTCGAGTCGTGCTAG	3.72
TTAGGTTTCGACTTTAGGTTAGTGCTA	3.57
AACGGTATCGGTTTCGGGACGTGCTAG	7.08
TCATATATATAATATATAACTGTGCTA	0.557
GACGAACTGGGGTATCGACACGTGCTA	-0.505
ATACCTTAGGTTTTCTGGTTGTGCTAG	0.344
TTAGGTTTCGACTATCGGTTTGTGCTA	2.88
ACACATCTCACTCTAATCTCGTGCTAG	1.01
GTAGATTTCGGGTATCGATTAGTGCTA	1.68
AGTGTTTCCCCTATTTAAGAGTGCTAG	2.9
TTAGGTATCCTTTTTCTTTAGTGCTAG	8.04
TTAGGTATGGACACTGGGTTAGTGCTA	-0.817
GACGATCTCGGGACTGGAGACGTGCTA	0.0264
TTAGGACTGGGTCTCGGTTGGTGCTAG	-0.832
TTAGGTATCGACTATTGGTTAGTGCTA	0.0199
GACGGTATCGACACTGGAGACGTGCTA	0.591
TAAGGTCTCCTTTTCCTTTAGTGCTAG	5.19
ATTTACATGCATATAGTATAGTGCTAG	1.13

Set 4
Target: ATF5, bZIP domain (human)
Technique: DHFR protein complementation
Medium: yeast
Notes: single substitutions, most at no-binding floor
Reference: wild-type JUN-FOS pair
Direction: higher = stronger binding
Parent: JUN, bZIP domain (human); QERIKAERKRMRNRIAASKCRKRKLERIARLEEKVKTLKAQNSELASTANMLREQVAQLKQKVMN; partner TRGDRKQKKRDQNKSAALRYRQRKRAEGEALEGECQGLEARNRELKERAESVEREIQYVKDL
Variant	binding fitness [natural log]
I28M	-1.56
L59R	-1.56
S43M	-1.28
K34P	-1.5
T48G	-1.5
Q41H	-1.48
A40T	-1.45
Q41C	-1.49
N42S	-1.53
M51V	-1.49
S43H	-1.49
A29Y	-1.33
A57R	-1.44
A49R	-1.48
L38C	-1.48
S43V	-1.46
E54A	-1.49
T37R	-1.52
V56Q	-1.58
E44N	-1.49
A40Y	-1.39
E54I	-1.52

Set 5
Target: CCNB1, cyclin fold, Cln2 fusion (human)
Technique: yeast growth competition, sequencing
Medium: yeast
Notes: weak parent motif
Reference: not given
Direction: higher = stronger binding
Parent: CENPC docking peptide (human); VKTKKRLNFDDKV
Variant	normalised enrichment score
AKTKKRLNFDDKV [V1A]	0.451
VKTKARANFDDKV [K5A L7A]	0.555
VKTKRRLNFDDKV [K5R]	1.26
VKTKKRLAFDDKV [N8A]	0.985
VKTKKRLNFDAKV [D11A]	1.08
VKAKKRLNFDDKV [T3A]	0.658
VKTAKRLNFDDKV [K4A]	1.02
VKTKRRLNLDDKV [K5R F9L]	0.233
VKTKKRANFDDKV [L7A]	0.322

Excerpt of the above (set 5):
Variant	normalised enrichment score
AKTKKRLNFDDKV [V1A]	0.451
VKTKARANFDDKV [K5A L7A]	0.555
VKTKRRLNFDDKV [K5R]	1.26
VKTKKRLAFDDKV [N8A]	0.985
VKTKKRLNFDAKV [D11A]	1.08
VKAKKRLNFDDKV [T3A]	0.658
VKTAKRLNFDDKV [K4A]	1.02
VKTKRRLNLDDKV [K5R F9L]	0.233
VKTKKRANFDDKV [L7A]	0.322
